Published values pooled from the literature.
Compare with care: the assays were run in different laboratories. Several values in a cell are separate wells, animals, samples, runs or records. Numbers after ± are the reported error.
Chain of UniProt O43684 (whole entry, looked up): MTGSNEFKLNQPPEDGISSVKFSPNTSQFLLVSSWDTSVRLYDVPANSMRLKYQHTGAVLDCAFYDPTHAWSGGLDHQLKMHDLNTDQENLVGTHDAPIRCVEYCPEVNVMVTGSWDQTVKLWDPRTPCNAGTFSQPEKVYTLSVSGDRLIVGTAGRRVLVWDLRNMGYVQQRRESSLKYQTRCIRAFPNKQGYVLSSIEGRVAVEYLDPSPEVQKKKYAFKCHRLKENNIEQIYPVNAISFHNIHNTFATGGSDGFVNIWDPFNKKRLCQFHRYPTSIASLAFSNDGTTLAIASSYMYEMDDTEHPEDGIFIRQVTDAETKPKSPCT

| SMILES | tested on | assay | test system | setting | scale | measurement | value |
| --- | --- | --- | --- | --- | --- | --- | --- |
| C[C@H]1[C@H](C)CC[C@]2(C(=O)O)CC[C@]3(C)C(=CC[C@@H]4[C@@]5(C)CC[C@H](O)C(C)(C)[C@@H]5CC[C@]43C)[C@H]12 | 3T3 | cell growth, MTT | – | 1.8 µg/mL, 48 h | – | cell survival | 87.4 ± 1% |
| Oc1ccc(C2(c3ccc(O)cc3)c3ccccc3-c3ccccc32)cc1 | HepG2 spheroids | planimetry | – | 160 µM, 96 h | baseline: solvent control | spheroid surface area | 1.61 fold |
| COc1ccc2c(c1)CC[C@@H]1[C@@H]2CC[C@]2(C)[C@@H](NCCCCCCN3C(=O)C=CC3=O)CC[C@@H]12 | N2a | fluorescence signal increase, inhibitor | – | 1 µM, activation phase, together with: BzATP 300 µM | – | effect on signal | no effect |
| Oc1cc(Cl)ccc1Oc1ccc(Cl)cc1Cl | HepG2 | extracellular flux, refers to: reserve respiratory capacity | – | 24 h, distribution mode 1 | – | point of departure | 0.0661 µM |
| Oc1cc(O)cc(-c2cc3ccc(O)cc3o2)c1 | 3T3 | cell growth, MTT | – | 100 µg/mL, 48 h | – | cell survival | 33.6 ± 0.34% |
| Nc1ncc(-c2nc(N3CCOCC3)nc(N3CCOCC3)n2)c(C(F)F)n1 | PA-1 | – | – | 72 h | – | GI50 | 412 nM |
| Cc1cc(NS(=O)(=O)c2ccc(NC(=O)/C(C#N)=C/c3ccc(N4CCCCC4)cc3)cc2)no1 | HCT-116 | ELISA, refers to: CDH1 | – | IC50, 48 h, unit not given | baseline: untreated | protein level | 2.46 |
| C=C(C)[C@@H]1CCC(C)=C[C@H]1c1c(O)cc(CCCCC)cc1O | human sperm | BCECF | – | 10 µM | – | intracellular pH | no effect |
| C#CCCC[C@H]1OC(=O)[C@H](C(C)C)N(C)C(=O)[C@@H]2CCCN2C(=O)[C@H]([C@@H](C)CC)OC(=O)[C@H]([C@@H](C)CC)N(C)C(=O)[C@H]([C@@H](C)CC)NC(=O)[C@H]1C | hiPSC-derived nociceptors | multi-well microelectrode array | – | 30 µM, within first hour, 37 °C | baseline: DMSO | neuronal activity reduction | ~60% |
| Cn1cc(-c2ccc(-c3cncc(Cl)c3N3CCC4(CCNC4=O)CC3)cc2)cn1 | COLO 205 | microarray, refers to: BIRC5 | – | concentration not given, 6 h, gene set Survivin | baseline: untreated cells | fold change in expression | -3.3 |
| CC(C)=CCc1c(O)cc(O)cc1-c1cc2ccc(O)c(CC=C(C)C)c2o1 | 3T3 | cell growth, MTT | – | 25 µg/mL, 48 h | – | cell survival | 61.76 ± 0.43% |
| COc1ccc([C@H]2c3[nH]c4ccc(Cl)cc4c3CCN2C(=O)Oc2ccc(Cl)cc2)cc1 | CD19+ B cells with PBMC | cytokine secretion, refers to: s-IL-6 | – | 0.1 µM, 72 h, BioMAP BT system | – | inhibition | 72% |
| CCN(CC)CCOC(=O)C(O)(c1ccccc1)c1ccccc1 | primary rat hippocampal/cortical neuron-glia cultures | – | – | 1 µM, together with: 1 µM α-synuclein oligomers | – | reversal of trafficking deficit | -16.2% |
| CC(C)C[C@H](NC(=O)[C@H](CCc1ccccc1)NC(=O)CN1CCOCC1)C(=O)N[C@@H](Cc1ccccc1)C(=O)N[C@@H](CC(C)C)C(=O)[C@@]1(C)CO1 | patient normal conditionally reprogrammed cells | RNA-seq, refers to: MAP1A mRNA | human | concentration not given | baseline: DMSO | fold change | -61.6 |
| O=C(c1cc(-n2sc3ncccc3c2=O)ccc1Cl)N1CCOCC1 | HIV-infected PBMCs | – | – | 1.0 µM, two donors | – | CD4 surface recovery | 6 ± 3.6% |
| COc1c(CCC[P+](c2ccccc2)(c2ccccc2)c2ccccc2)cc2c(c1OC)OCO2.[I-] | SNB-19 | SRB | – | – | – | GI50 | -5.84 log M |
| C[C@H]1CN(c2n[nH]c3nc(N[C@H]4CC[C@H](NS(=O)(=O)CCC(F)(F)F)CC4)ncc23)CCO1 | Mitotic checkpoint protein BUB3 (Homo sapiens, UniProt O43684) | biochemical | – | – | – | IC50 | ≥ 20000 nM |
| Cc1cccc(-c2cccc(C)n2)n1.Cc1cccc(-c2cccc(C)n2)n1.F[P-](F)(F)(F)(F)F.F[P-](F)(F)(F)(F)F.[Ru+2].c1ccc2cc(-c3nc4c5cccnc5c5ncccc5c4[nH]3)ccc2c1 | SK-MEL-28 | – | – | normoxia, together with: green light 523 nm, 100 J/cm2 | baseline: dark over light EC50 | phototoxicity index | 1 |
| C[C@]12CC[C@H](O)C[C@H]1CC[C@@H]1[C@@H]2CC[C@]2(C)[C@@H](c3ccc(=O)oc3)CC[C@]12O | MCF7 | RT-qPCR, refers to: PGR | – | 20 nM, 48 h, without estradiol, unit not given | baseline: untreated | mRNA level | 0.619 and 0.768 and 0.61 |
| O=C1N(Cc2ccccc2Cl)c2ccccc2C12NN=C(c1ccccc1)S2 (stereo not drawn) | MDA-MB-468 | gene expression array, refers to: DEDD2 mRNA | – | 10 µM, 12 h | baseline: untreated, up | fold change | 2.01 |
| N.N.[Cl][Pt][Cl] | SK-MEL-28 | cell growth, SRB | – | dark, 1% O2 hypoxia | – | GI50 | 1880 nM |

| SMILES | tested on | assay | test system | setting | scale | measurement | value |
| --- | --- | --- | --- | --- | --- | --- | --- |
| O=C1CCP(=S)(c2ccccc2)CC1 | PC-3 | Annexin V-FITC/PI flow cytometry | – | IC50, 72 h | – | late apoptotic cells | 95.5% |
| CCN(CC)c1ccc(C=NNC(=O)CSc2nc3ccccc3c(=O)n2Cc2ccc(S(N)(=O)=O)cc2)c(O)c1 | MDA-MB-435 | NCI five-dose screen | – | – | – | CC50 | > 100000 nM |
| COc1c(C)c2c(c(O)c1C/C=C(\C)CCC(=O)O)C(=O)OC2 | TE-671 | cell proliferation | muscle cancer | – | – | IC50 | 724 nM |
| COc1cnc(OC)n2nc(NS(=O)(=O)c3c(OCC(F)F)cccc3C(F)(F)F)nc12 | HEK293T | cytotoxicity, CCK-8 | – | 100 µM, 72 h | – | inhibition | 0.68 ± 0.19% |
| CN1CCN(C2(CNC3CCN(c4cccc(-c5cc6cc(F)ccc6[nH]5)c4)CC3)CCC2)CC1 | SNB-19 | – | – | NCI60 CNS cancer panel | – | TGI | 3770 nM |
| Cc1cc(C(C)(C)c2ccc(O)c(C)c2)ccc1O | HepG2 spheroids | Hoechst flow cytometry | – | 1 µM, 96 h | – | G2 phase cells | 21.1 ± 3.92% |
| COc1ccc2c(c1)[nH]c1c(C)nccc12 | DU-145 | bisulfite pyrosequencing, refers to: RASSF1A promoter CpG site 12 | – | concentration not given | baseline: vehicle | methylation reduction | 2.73% |
| CCCCCCCCCCCCCC(=O)O[C@@H]1[C@@H](C)[C@@]2(O)[C@@H](C=C(CO)C[C@]3(O)C(=O)C(C)=C[C@@H]23)[C@@H]2C(C)(C)[C@]12OC(C)=O | HEL | flow cytometry | – | concentration not given | baseline: cells | sub-G0 cells | 2.63% and 2.85% and 2.37% |
| Nc1ncnc2c1ncn2[C@@H]1O[C@@H]2COP(=O)(O)O[C@H]3[C@@H](O)[C@H](n4cnc5c(=O)[nH]cnc54)O[C@@H]3COP(=O)(O)O[C@H]2[C@H]1O | HFF-1 | RNA sequencing, refers to: Reactome R-HSA-8874081 | – | downregulated pathway | baseline: Zika virus alone | pathway fold enrichment | 11.9 |
| CC(C)N1CCC(NC2CCN(c3cccc(-c4cc5cc(F)ccc5[nH]4)c3)CC2)CC1 | SK-MEL-28 | – | – | – | – | GI50 | 1750 nM |
| O=S(=O)(c1ccc(O)cc1)c1ccc(O)cc1 | HepG2 spheroids | Hoechst flow cytometry | – | 0.1 µM, 24 h | – | S phase cells | 9.78 ± 1.53% |
| COc1ccc(N(CC2CCC2)S(=O)(=O)C2CC3OC2C(c2ccc(O)cc2)=C3c2ccc(O)cc2)cc1 (stereo not drawn) | MCF7 3xERE-luc, steroid-deprived | ERE luciferase reporter, agonist | – | – | – | EC50 | 31.6 nM |
| Cc1nn(-c2nc3ccc(Cl)c(Cl)c3[nH]2)c(O)c1C1OC(=O)c2ccccc21 (stereo not drawn) | RAW-ISG | CCK-8 | – | 200 µM | – | viability | 8.33% and 14.1% and 13.4% and 14.6% |
| COc1cc(C(=O)c2nc(-c3cccc4[nH]ccc34)c[nH]2)cc(OC)c1OC | PC-3/TxR | scratch wound healing | – | 5 nM, 24 h | – | wound closure reduction | ~80% |
| Cn1cc(Nc2nccc(-c3ccc4c(c3)CN(C3COC3)CC[C@H]4NC(=O)c3cn(C(C)(C)C)nn3)n2)cn1 | mouse splenic B cells | refers to: Neurotrophin/TRK signalling | – | 30 mg/kg, IgD-activated in vivo | baseline: vehicle, direction not given | pathway activation z-score | 3.32 |
| CN1CCN(S(=O)(=O)c2cc([N+](=O)[O-])ccc2N(CCOS(C)(=O)=O)CCOS(C)(=O)=O)CC1 | sample J MLL-ALL PDX cells | cell viability | ex vivo | – | – | IC50 | 8.2 nM |
| COc1cc(CCC[P+](c2ccccc2)(c2ccccc2)c2ccccc2)c(OC)c2c1OCO2.[I-] | SK-MEL-2 | SRB | – | – | – | LC50 | -4.27 log M |
| Cn1cncc1C1=CN(c2ncnc3[nH]cnc23)CCS1 | Hs-578T | – | – | – | – | CC50 | > 200000 nM |
| O=C1CCP(=[Se])(c2ccccc2)CC1 | PC-3 | MTT | – | 72 h | baseline: IC50 HaCaT over IC50 PC-3 | selectivity index | 1 |
| COc1cnc2cccc(N3CCc4c(cc(Cn5ccnc5C)cc4-c4cn(C)nc4C(F)(F)F)C3=O)c2c1 | A101D | cell growth, inhibitor | – | 120 h | – | EC50 | > 30000 nM |
| C/C=C(/C)C(=O)O[C@H]1C(C)=C2[C@H]([C@@H]1OC(=O)CCCCCCC)[C@@](C)(OC(C)=O)C[C@H](OC(=O)CCC)[C@@]1(O)[C@H]2OC(=O)[C@@]1(C)O | HEK293T | RNA-seq, refers to: PON2 mRNA | – | 10 µM, 6 h | baseline: vehicle | log2 fold change | -0.513 |
